Experimental data collected from several papers.
A part holds a random share of what one study measured.

Set 1
Target: Interferon regulatory factor 5, full length, phosphomimetic (IRF5, Homo sapiens, UniProt Q13568-2, residues 1-514, K96S/S451D/S453D/S456D/S462D)
Technique: protein-binding microarray
Molecule type: double-stranded DNA, one strand shown
Medium: in vitro
Tested at: 250 nM
Setting: 60-bp whole probe
With: salmon DNA 0.4 mg/ml
Relative to: random background probes
Direction: higher = stronger binding
Measurement: log fluorescence
Constant ends, left off below: GCCTAGCAC … GTCTTGATTCGCTTGACGCTGCTG
TCAACTCTTCTTTTTTTACTGTGCTAG: 0.802 z-score
GACGGTTGCGGTTTCGGGACGTGCTAG: 3.18 z-score
GACCGTATCGACTTTCGGGACGTGCTA: 6.77 z-score
AAGACCATCCTATGTAGATGTGTGCTA: -0.205 z-score
TTAGATTACAGTTTCGATTAGTGCTAG: 8.92 z-score
ACTCATTTTCATTTTGTGTCGTGCTAG: 2.63 z-score

Set 2
Target: Sal-like protein 4, full length isoform A (SALL4, Homo sapiens, UniProt Q9UJQ4, residues 1-1053)
Sequence of UniProt Q9UJQ4 (whole entry, looked up): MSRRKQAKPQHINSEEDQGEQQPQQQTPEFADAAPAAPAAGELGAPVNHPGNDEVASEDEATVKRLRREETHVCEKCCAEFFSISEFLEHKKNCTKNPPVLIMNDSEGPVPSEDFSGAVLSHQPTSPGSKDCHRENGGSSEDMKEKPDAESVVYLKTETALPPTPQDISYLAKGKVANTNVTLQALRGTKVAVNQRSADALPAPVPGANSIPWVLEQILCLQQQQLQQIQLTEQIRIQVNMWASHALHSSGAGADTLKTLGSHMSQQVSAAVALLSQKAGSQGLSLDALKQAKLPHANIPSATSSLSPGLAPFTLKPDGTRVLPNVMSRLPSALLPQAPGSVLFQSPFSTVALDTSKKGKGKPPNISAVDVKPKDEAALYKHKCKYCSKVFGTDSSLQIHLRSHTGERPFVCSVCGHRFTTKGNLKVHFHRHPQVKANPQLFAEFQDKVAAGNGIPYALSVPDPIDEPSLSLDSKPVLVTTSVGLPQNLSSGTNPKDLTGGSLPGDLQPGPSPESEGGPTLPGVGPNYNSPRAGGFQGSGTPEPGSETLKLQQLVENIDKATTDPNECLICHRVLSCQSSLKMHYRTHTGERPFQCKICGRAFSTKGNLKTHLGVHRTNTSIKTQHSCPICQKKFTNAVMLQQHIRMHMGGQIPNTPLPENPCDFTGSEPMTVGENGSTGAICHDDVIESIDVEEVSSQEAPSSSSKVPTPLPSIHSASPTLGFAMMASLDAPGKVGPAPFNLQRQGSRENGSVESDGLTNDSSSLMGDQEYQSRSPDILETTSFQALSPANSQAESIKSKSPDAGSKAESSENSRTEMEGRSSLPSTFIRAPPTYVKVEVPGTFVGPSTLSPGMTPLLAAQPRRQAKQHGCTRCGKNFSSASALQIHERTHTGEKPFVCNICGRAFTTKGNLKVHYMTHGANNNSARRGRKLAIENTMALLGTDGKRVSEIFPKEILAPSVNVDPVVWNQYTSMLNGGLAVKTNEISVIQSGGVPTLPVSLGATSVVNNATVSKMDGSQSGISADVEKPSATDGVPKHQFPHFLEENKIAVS
Technique: universal PBM
Molecule type: double-stranded DNA, one strand shown
Medium: in vitro
Tested at: 600 nM
Setting: 8-mer, flanks averaged, mean of replicates
Direction: higher = stronger binding
Measurement: E-score
GCTTTGTA: 0.152
CTATAGGC: 0.0176
CCGCCGAC: -0.318
CAGGGCGC: -0.32
ATTACAGG: 0.177
CAGCCTGA: -0.13

Set 3
Target: Histone acetyltransferase KAT6A, both winged helices, GST fusion (KAT6A, Homo sapiens, UniProt Q92794, residues 1-181)
Technique: protein binding microarray
Molecule type: double-stranded DNA, one strand shown
Medium: in vitro
Tested at: not given
Setting: 8-mer, flanks averaged, mean of 2 arrays, mostly near background
Relative to: not given
Direction: higher = stronger binding
Measurement: E-score
Construct (chain): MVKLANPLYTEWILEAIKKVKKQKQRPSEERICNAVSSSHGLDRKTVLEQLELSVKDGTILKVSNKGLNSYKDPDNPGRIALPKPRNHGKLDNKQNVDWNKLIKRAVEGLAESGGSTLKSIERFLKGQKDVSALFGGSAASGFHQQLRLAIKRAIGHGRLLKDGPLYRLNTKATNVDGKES
GGTCGCAA: 0.143
AGGAAACG: -0.0538
CCAAGAGG: -0.217
ACCCTAAC: -0.138
GACGGATA: 0.253
ATAGGGCC: -0.125
AAATCAGC: -0.204
GTTTTAGA: -0.163
TGTTTGAA: -0.164

Single results of other studies
PhoQ, residues 284 288 289 292 302 303 SCCLKL
fold induction (PhoP, residues 12 14 15 18 19 MHTVL (Escherichia coli, UniProt P23836); Sort-seq, measured: YFP reporter; E. coli; PhoQ-PhoP variant library, with: 10 µM Mg2+; relative to: high Mg2+ state, higher = stronger signaling): 3.05

Some of these lines once more (set 2):
GCTTTGTA: 0.152
CAGCCTGA: -0.13
ATTACAGG: 0.177
